Experimental data gathered from unrelated publications.
Parts stem from different laboratories: compare values within a part only. Changes are numbered by the printed parent chain.

Set 1 — target: CCNA2, cyclin fold, Cln2 fusion (human); technique: yeast growth competition, sequencing; medium: yeast; setting: strong parent motif; baseline: not given; reading: higher = stronger binding
Parent: KIF20B docking peptide (human); KRAKRKLYTSEIS
Substitution	normalised enrichment score
KRAKRALYTSEIS [K6A]	1.11
KRAKRKAYTSEIS [L7A]	0.853
KRAKRKLYASEIS [T9A]	1.23
KRAKAKLYTSEIS [R5A]	0.0263
KRAKRKLYTAEIS [S10A]	0.835
KRAKRKLYTSEAS [I12A]	1.36

Set 2 — technique: aptamer microarray, sandwich; molecule type: DNA with 2'F-ANA; medium: in vitro; tested at: 200 nM; together with: Cy3 exosite-II aptamer, 400 nM; reading: higher = stronger binding; sequence: GGTTGGTGTGGTTGG
Target: Prothrombin, mature alpha-thrombin (F2, Homo sapiens, UniProt P00734)
Setting: whole 15-mer aptamer, many near background
Modification	mean fluorescence intensity [a.u.]
2'F-ANA at 2 4 6 7 11 13 15	165
2'F-ANA at 4 5 9 11 12 13	118
2'F-ANA at 1 2 5 6 10 11 13 14 15	58.5
2'F-ANA at 2 3 7 8 10 12 13 14 15	276
2'F-ANA at 1 3 6 7 9 10 11 12	94.3
2'F-ANA at 3 4 9 15	661
2'F-ANA at 1 2 4 5 7 8 12 13 14	68
2'F-ANA at 1 2 5 6 9 11 13 14 15	45.9
2'F-ANA at 4 10 11 14	82
2'F-ANA at 5 8 10 11 13 14 15	47
2'F-ANA at 2 3 5 6 8 13 14	168
2'F-ANA at 1 3 4 5 7 8 10 12 14	78.4
2'F-ANA at 2 4 6 7 9 10 12 13	80.2
2'F-ANA at 2 5 6 7 8 9 11 12 13 15	87
2'F-ANA at 5 6 7 8 12 13 14 15	49.4
2'F-ANA at 1 3 4 6 8 9 10 14	53.1
2'F-ANA at 1 6 7 9 10 11 13 15	74.2
2'F-ANA at 1 2 4 6 9 11 13 14 15	50.6
2'F-ANA at 3 4 5 7 8 12 13 14 15	79.7
2'F-ANA at 3 6 7 10 14	475
2'F-ANA at 1 2 5 6 8 10 11	48.1
2'F-ANA at 1 3 7 8 10 14 15	60.6
2'F-ANA at 3 5 8 9 10 14	84.1
2'F-ANA at 1 3 4 6 7 8 9 10 12 14	58.3
2'F-ANA at 2 3 4 5 7 9 10 11 12 13 14	55.6

Set 3 — technique: RNA Bind-n-Seq; molecule type: RNA; medium: in vitro; tested at: 365 nM; baseline: no-protein control; reading: higher = stronger binding
Target: RNA binding protein fox-1 homolog 2, RRM domain, GST-SBP tag (RBFOX2, Homo sapiens, UniProt O43251-10, residues 100-194)
Setting: natural RNA segment, single round, ends assumed
All sequences stand within: GGGAGUUCUACAGUCCGACGAUC … UGGAAUUCUCGGGUGCCAA
Residues (chain): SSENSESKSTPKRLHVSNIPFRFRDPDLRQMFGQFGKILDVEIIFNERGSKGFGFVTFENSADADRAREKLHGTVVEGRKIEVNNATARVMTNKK
Sequence	RBNS enrichment (R)
GAAUUUUUUAUGUACAUAAAGCCAUAUGUUUAGGGUGGUUUCUAUCUGUCUUGUUUUUCACUUAUAUAACACUGUGAACUUCUAAAGCAAGAGGAUAAAAGAAGCAUGAA	7.75
UGAUUCUGGUGAUCCAGUGAUCUAUGGAAGUCGUGUCUUACUCCAGGUGAAGGGGGAAAAAAAAAGCCUAUACUUUGGCAGGUUAUGAACUUUGAAUGUGAUGAAAUGAC	2.23
CCCUUUCUUAAUAUGACUAGUGGUCUUGAUGCUAGAGUCAACUUACUCUGUUGCUGGCUUUAGCAGAGAAUAGGAGGAACCAUAUGAAAAAGAUCAGGCUUUCUGACUUC	0.36
AAAAUUUAGUUAAAAAUUGAAGUAUUUCUGUCAUAGACAAAAUUACUCUGUUUUAACAUAUUCCUGGUGGACUAUAUCAACCUUUUGUGCCCUGAAAACUUGAAGGUUAA	0.295
UGCUCUUAAAAGCACUCAUAGAAAGUGUAAGCAUGUGUAAGCAUGUCCUGAAUAGCUUACUAUUCUGUCAUGGUAAAACACAGCCUUUCUGUUCAAAUAUUAGGCCAAUC	0.275
GUAGUCUUUGGAGUCUACAAGUGACUGUCAUUUUAAGCAACUCAUUAAAUAUUGGUUCAUUUUUUUUCCAUGUUGUGGAGACACCAAGAUGAACGCAGCAUGAAUCUCAU	5.83
GAGGCACUUCCUUGGGGUCUUUCUCUAGGGUCUCUUCUCUACAAAGCACAACACUAAUGUUCGUUUCCUUAGACCUCAGUUCAAGUGCCCCUAUUUAUUUCAAUAAGAAC	0.385
GCCUGAGGUCAAAGCUGUGGAAGGCCCUCUUGGUAUCAGGGCUCUCUCCCCAUGGCCUCUUCCCCACCUCUGAUUGCUGGUUGUGGCCCCAUAGCUCAUCACCCCUGUCU	1.87
UUCCAUUGUAUCUUUCUAAUAAGGGUUUAAAAUGGUACUAUUAUGGUAUUGUACUUGGGCUUUAACAUCAAUGUUGCUUUGAUGUUGUUGGAUAUAAAUAGGAAUUUUUA	0.444
AGUAUUUAACUUGAAAUUCAUCAUGGGAGUCUGCUGCUAUACCAGGCACAAGAUAAAACUCCAAAAUUUCUGUUUACAUUGACCUUUACAUUUAAAGCUGUUCAUCCAUG	0.33
ACCCAGGGAGGCAGCAGACAGGUGGGAGCUCCUGGGGCACGGCCGUGGGAUUGCUUCCACCAGUGUGUUUCUGAGACUUCUCCUUAUCUUCCAGGCCAAAGUAUGUUGCU	0.62
GGAUUUACAUUACAAAGGCGUCCACGGUGUAUUAGUGACAUUCUUCCAUUGACAUUUAGAGUGAAAUAUUUUAUGCCAAAAAAAAAAUCUCUUUUUUAAAAAAGGGGGUU	0.426

Set 4 — technique: universal PBM; molecule type: double-stranded DNA, one strand shown; medium: in vitro; tested at: not given; reading: higher = stronger binding
Target: Sal-like protein 4, full length isoform B (SALL4, Homo sapiens, UniProt Q9UJQ4-2, residues 1-616)
Setting: 8-mer, flanks averaged, mean of replicates
Sequence	E-score
ACGGAGCA	-0.00681
GCTTAAGC	0.0959
CGCCGCAG	-0.382
ATCGCGAG	-0.0262
GGGGTATA	0.0407
GCTCGTCA	-0.17
CAAGCATC	-0.0467
CAGTTCCG	-0.261
GCCTTCTA	-0.0563
ACCTTGAT	0.0622
GCTTTCCA	-0.04
CTAACCTC	0.0653
ATGTGGGA	0.0361
TCCTTACA	0.0783
CGTAGAGA	-0.0621
CCCTGTTA	0.0866
AAAAAGAG	-0.0172
CCAGTCCC	-0.157
TCCTTAAA	0.164
GCCGGGGA	-0.301
ACAGATCT	-0.0198
ACAGCGTG	-0.0614
CCCTCCAC	-0.198
AGAAGGAG	-0.0391
ATCGATAC	0.128

Set 5 — technique: DHFR PCA, deep sequencing; medium: yeast; together with: (+)-ABA 0.11 µM; baseline: wild-type fitted maximum; reading: higher = stronger binding
Target: ABI1, truncated, D143A, DHFR fusion (Arabidopsis thaliana)
Setting: methotrexate growth selection, single substitutions
Parent: PYL1, truncated, DHFR fusion (Arabidopsis thaliana); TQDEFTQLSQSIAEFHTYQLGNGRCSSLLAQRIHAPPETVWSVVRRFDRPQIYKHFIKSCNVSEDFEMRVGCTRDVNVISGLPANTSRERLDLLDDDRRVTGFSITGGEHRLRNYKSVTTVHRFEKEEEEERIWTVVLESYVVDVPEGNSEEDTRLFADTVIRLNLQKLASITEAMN
Substitution	relative binding score
R49K	50.2%
D97G	13.1%
S63V	15.4%
G71T	-3.05%
S63C	25.4%
R45W	-3.35%
D48Q	-8.28%
H55C	41.7%
P37T	7.42%
I57M	-2.06%
E131W	18.3%
I79G	1.05%
Q2R	29%
S171I	13%
H110F	17%
H55P	86.1%
F66Y	10.4%

Set 6 — target: CREBRF, bZIP domain (human); technique: DHFR protein complementation; medium: yeast; baseline: wild-type JUN-FOS pair; reading: higher = stronger binding
Setting: single substitutions, most at no-binding floor
Parent: JUN, bZIP domain (human); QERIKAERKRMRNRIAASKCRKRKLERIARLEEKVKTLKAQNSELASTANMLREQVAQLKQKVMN; partner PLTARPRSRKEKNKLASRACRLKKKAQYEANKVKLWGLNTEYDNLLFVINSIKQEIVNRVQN
Substitution	binding fitness [natural log]
S43G	-1.44
Q58P	-1.59
K39W	-1.57
E44T	-1.46
E54I	-1.43
L52P	-1.52
N42V	-1.47
L45G	-1.55
L52N	-1.39
T37L	-1.3
L45A	-1.5
Q55L	-1.34
I28P	-1.51
Q41G	-1.47
Q55D	-1.35
Q55G	-1.46
E54D	-1.53
S47F	-1.32
V35Q	-1.47
V56W	-1.49
K34D	-1.32
K39R	-1.28
R30T	-1.37
L45W	-1.56
E44Q	-1.47

Set 7 — technique: protein binding microarray; molecule type: double-stranded DNA, one strand shown; medium: in vitro; tested at: not given; baseline: not given; reading: higher = stronger binding
Target: Histone acetyltransferase KAT6A, winged helix 1, GST fusion (KAT6A, Homo sapiens, UniProt Q92794, residues 1-85)
Setting: 8-mer, flanks averaged, mean of 2 arrays, mostly near background
Residues (chain): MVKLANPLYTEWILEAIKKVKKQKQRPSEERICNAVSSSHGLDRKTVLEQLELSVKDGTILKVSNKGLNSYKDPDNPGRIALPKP
Sequence	E-score
AAGGTTGG	-0.077
CCGAGATA	-0.0033
GGATAACC	0.0447
ACCACGTG	-0.11
CGTTCTAA	-0.00577
ATTTTTTC	-0.0347
CACTGAAA	-0.0736
GTCCAACA	-0.212
ATCGGCAT	0.131
ATAATTAA	-0.0895
GGCAGACA	0.0208
GGTTATGA	-0.129
AAGGCGGA	0.218
CGAGACCC	0.185
GCACGAGC	0.116
ACCATTCC	0.0272
AATGATCG	0.0737
CGAGGATA	-0.209
ACAAATAA	-0.176
AGTACAGC	-0.178
AATGCTAT	-0.123
GAGAAACA	-0.148
ACGTCTAG	-0.226
AGCGAAAT	-0.0672

A few entries again (set 6):
Substitution	binding fitness [natural log]
Q58P	-1.59
K39W	-1.57
E44T	-1.46
E54I	-1.43
L52P	-1.52
N42V	-1.47
L45G	-1.55
L52N	-1.39
T37L	-1.3
L45A	-1.5
Q55L	-1.34
I28P	-1.51
Q41G	-1.47
Q55D	-1.35
Q55G	-1.46
